# Assay results pooled from the literature.
# A part holds a random share of what one study measured. Several values in a cell are separate wells, animals, samples, runs or records.
# Sequence of UniProt O94806 (whole entry, looked up): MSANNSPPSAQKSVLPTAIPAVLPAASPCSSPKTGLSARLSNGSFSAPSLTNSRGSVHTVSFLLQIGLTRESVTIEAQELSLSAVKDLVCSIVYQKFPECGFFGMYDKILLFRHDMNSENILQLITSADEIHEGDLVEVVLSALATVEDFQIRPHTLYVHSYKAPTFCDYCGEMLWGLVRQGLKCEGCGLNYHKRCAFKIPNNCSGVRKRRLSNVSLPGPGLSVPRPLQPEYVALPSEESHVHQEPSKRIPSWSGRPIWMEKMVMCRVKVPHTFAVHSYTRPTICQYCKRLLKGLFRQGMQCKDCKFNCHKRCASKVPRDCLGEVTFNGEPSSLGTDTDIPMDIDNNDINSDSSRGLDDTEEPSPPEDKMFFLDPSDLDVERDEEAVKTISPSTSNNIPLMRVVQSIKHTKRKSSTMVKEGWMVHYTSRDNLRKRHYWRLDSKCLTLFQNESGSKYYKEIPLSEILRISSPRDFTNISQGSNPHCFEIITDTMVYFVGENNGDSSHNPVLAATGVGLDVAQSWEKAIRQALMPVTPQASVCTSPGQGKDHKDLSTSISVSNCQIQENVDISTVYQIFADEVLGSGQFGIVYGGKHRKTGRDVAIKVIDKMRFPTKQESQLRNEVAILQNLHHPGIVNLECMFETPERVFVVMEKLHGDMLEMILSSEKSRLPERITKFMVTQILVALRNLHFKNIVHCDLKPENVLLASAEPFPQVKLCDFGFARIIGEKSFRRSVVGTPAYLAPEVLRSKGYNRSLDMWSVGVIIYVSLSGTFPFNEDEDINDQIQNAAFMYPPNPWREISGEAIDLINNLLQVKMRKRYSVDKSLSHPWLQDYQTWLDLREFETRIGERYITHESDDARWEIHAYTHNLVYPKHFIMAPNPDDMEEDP
# Sequence of UniProt Q9UQM7 (whole entry, looked up): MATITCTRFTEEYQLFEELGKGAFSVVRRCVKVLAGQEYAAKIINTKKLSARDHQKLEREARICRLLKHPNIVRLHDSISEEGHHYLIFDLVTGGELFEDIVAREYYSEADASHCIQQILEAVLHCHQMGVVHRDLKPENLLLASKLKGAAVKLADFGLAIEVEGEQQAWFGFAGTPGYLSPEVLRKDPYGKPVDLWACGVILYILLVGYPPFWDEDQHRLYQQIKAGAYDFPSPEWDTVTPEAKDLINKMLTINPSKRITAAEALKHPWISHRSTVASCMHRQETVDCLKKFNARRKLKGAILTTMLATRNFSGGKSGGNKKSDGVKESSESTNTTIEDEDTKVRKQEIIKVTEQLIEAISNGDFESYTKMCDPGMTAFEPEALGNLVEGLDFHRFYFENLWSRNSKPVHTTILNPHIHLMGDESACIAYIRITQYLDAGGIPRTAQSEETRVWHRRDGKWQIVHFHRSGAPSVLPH
# Sequence of UniProt Q16566 (whole entry, looked up): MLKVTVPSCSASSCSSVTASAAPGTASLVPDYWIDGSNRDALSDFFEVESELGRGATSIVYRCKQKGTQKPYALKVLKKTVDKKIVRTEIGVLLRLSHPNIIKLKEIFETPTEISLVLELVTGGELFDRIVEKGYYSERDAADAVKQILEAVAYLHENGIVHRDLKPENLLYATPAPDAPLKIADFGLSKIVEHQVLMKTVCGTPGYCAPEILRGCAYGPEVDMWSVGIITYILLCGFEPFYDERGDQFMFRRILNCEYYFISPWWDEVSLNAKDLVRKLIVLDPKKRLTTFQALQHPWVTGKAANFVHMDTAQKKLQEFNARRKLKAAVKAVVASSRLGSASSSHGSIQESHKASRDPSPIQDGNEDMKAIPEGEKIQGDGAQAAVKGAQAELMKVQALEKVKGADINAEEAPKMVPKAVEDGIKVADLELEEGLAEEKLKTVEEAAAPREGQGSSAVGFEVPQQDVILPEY
# Sequence of UniProt Q8TDC3 (whole entry, looked up): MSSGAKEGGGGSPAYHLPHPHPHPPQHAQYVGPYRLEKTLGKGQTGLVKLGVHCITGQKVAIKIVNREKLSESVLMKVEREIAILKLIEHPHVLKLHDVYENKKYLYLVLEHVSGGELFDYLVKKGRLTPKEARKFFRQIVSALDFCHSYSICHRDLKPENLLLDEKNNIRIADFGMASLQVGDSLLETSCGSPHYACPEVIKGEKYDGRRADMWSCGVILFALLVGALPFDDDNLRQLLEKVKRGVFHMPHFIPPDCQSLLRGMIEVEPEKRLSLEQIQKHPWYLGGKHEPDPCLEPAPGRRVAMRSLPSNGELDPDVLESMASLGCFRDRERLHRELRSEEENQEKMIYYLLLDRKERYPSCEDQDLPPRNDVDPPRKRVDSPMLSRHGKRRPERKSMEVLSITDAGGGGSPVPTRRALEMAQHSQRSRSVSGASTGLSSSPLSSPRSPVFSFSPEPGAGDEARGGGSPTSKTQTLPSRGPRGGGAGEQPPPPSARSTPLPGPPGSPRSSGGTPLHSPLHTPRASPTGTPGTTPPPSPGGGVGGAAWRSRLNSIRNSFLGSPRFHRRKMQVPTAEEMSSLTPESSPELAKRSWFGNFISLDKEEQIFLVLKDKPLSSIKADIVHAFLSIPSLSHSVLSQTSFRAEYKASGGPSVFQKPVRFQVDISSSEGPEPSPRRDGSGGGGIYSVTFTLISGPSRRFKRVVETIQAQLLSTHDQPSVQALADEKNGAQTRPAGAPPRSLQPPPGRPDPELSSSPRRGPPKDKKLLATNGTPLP
# Sequence of UniProt Q9H0K1 (whole entry, looked up): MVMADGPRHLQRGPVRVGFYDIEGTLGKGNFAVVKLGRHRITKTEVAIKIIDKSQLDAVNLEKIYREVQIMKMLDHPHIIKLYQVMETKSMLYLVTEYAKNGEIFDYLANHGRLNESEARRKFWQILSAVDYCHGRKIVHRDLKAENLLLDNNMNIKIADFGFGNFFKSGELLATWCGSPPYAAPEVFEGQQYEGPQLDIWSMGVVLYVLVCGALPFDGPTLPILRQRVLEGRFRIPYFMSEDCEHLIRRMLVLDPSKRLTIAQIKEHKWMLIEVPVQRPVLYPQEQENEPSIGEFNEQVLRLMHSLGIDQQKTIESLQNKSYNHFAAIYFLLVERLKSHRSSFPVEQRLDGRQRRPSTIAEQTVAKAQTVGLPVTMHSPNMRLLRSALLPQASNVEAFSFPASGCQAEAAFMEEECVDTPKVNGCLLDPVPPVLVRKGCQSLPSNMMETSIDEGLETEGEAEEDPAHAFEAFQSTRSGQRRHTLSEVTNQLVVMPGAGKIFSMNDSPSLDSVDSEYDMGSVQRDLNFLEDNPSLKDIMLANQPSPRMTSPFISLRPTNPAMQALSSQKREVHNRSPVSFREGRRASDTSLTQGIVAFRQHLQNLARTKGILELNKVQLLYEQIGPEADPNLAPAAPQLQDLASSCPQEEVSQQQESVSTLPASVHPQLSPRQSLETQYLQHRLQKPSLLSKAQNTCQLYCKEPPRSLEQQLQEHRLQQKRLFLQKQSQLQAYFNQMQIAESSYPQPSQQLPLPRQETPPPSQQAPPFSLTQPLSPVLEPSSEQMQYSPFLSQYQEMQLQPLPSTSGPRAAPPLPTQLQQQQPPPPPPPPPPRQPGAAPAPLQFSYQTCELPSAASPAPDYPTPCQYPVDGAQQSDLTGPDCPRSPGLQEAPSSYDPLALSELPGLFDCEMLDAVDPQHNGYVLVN
# Sequence of UniProt Q9BXA7 (whole entry, looked up): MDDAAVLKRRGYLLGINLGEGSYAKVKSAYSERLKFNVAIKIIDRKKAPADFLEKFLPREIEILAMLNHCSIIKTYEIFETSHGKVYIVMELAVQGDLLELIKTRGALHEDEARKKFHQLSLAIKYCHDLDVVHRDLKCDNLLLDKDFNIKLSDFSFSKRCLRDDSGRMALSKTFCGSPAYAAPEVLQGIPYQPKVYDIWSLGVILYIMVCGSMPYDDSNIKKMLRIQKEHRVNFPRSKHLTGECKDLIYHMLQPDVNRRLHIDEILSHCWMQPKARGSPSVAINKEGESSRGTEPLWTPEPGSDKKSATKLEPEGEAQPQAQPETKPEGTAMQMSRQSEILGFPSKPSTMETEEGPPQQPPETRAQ
# Sequence of UniProt Q16513 (whole entry, looked up): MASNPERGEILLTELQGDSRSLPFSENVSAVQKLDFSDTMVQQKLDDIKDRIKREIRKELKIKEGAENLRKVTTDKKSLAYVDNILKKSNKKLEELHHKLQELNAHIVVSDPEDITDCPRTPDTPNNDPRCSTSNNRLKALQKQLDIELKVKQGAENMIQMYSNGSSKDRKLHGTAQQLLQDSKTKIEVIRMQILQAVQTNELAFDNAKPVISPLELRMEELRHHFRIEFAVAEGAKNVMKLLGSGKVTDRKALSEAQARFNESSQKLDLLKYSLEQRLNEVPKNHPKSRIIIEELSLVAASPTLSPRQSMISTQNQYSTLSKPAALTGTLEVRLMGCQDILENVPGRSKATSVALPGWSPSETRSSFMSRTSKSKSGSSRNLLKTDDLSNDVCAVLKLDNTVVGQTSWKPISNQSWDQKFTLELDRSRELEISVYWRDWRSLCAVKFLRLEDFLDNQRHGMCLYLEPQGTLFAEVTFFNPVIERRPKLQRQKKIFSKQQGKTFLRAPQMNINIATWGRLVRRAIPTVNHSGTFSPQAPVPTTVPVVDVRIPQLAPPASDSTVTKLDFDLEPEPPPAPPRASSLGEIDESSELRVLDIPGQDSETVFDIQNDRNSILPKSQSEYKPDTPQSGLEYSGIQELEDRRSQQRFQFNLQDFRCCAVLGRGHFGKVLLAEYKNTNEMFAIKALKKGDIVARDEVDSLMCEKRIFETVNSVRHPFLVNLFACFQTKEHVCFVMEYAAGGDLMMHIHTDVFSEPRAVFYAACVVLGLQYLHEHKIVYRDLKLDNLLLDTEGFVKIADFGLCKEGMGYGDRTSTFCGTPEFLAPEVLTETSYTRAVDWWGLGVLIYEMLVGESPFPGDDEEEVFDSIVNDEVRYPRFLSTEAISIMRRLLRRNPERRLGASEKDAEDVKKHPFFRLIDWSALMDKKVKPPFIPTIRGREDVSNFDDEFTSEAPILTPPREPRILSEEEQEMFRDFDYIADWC

# Block 1
# SMILES: CS(=O)(=O)N1CCCC(NC(=O)[C@H](CCC2CCCCC2)NC(=O)c2ccc(CNc3ncnc4c3nnn4-c3ccccc3)cc2)C1 (stereo partly drawn)
# Effect on: cell-free assay
# Method: competition with immobilised ligand
# Concentration: 0.1 µM
target,remaining binding [%]
"Mitogen-activated protein kinase 12 (MAPK12, Homo sapiens, UniProt P53778)",100
"Receptor-type tyrosine-protein kinase FLT3 (FLT3, Homo sapiens, UniProt P36888, K663Q)",94
"Serine/threonine-protein kinase BRSK1 (BRSK1, Homo sapiens, UniProt Q8TDC3)",100
"Ribosomal protein S6 kinase alpha-2, C-terminal kinase domain (RPS6KA2, Homo sapiens, UniProt Q15349)",100
"Serine/threonine-protein kinase N2 (PKN2, Homo sapiens, UniProt Q16513)",95
"Calcium/calmodulin-dependent protein kinase type IV (CAMK4, Homo sapiens, UniProt Q16566)",98
"Insulin receptor-related protein (INSRR, Homo sapiens, UniProt P14616)",100
"Tyrosine-protein kinase Blk (BLK, Homo sapiens, UniProt P51451)",100
"Serine/threonine-protein kinase SIK2 (SIK2, Homo sapiens, UniProt Q9H0K1)",86
"Proto-oncogene tyrosine-protein kinase receptor Ret (RET, Homo sapiens, UniProt P07949, V804M)",82
"Testis-specific serine/threonine-protein kinase 1 (TSSK1B, Homo sapiens, UniProt Q9BXA7)",85
"Serine/threonine-protein kinase D3 (PRKD3, Homo sapiens, UniProt O94806)",100
"Calcium/calmodulin-dependent protein kinase type II subunit alpha (CAMK2A, Homo sapiens, UniProt Q9UQM7)",100
"Cyclin-dependent kinase 14 (CDK14, Homo sapiens, UniProt O94921)",100
"Cyclin-dependent kinase 8 (CDK8, Homo sapiens, UniProt P49336)",100

# Block 2
# Cell line: mouse MPNST tumor cells
# Method: high-content immunofluorescence imaging
# Item: nuclear SOX9
# Concentration: 10 µM
# Time: 12 h
# Setting: mean of 2 replicates
# Reference: DMSO control
# Reading: higher = more nuclear SOX9
SMILES,nuclear SOX9 intensity
Cc1cccc(C#Cc2ccccc2)n1,93.3 % of DMSO
CC(C)N(CCC(=O)c1ccc2ccccc2c1)Cc1ccccc1,110 % of DMSO
C1=Cc2ccccc2C(=C2CCN(CCCCc3nn[nH]n3)CC2)c2ccccc21,98.7 % of DMSO
Cc1oc(-c2cccs2)cc1C(=O)O,95.5 % of DMSO
CC(C)C[C@H](NC(=O)[C@@H](O)[C@H](N)Cc1ccccc1)C(=O)O,98.7 % of DMSO
O=C(O)/C=C/c1ccc(Cn2ccnc2)cc1,97 % of DMSO
CCN1CC(CCN2CCOCC2)C(c2ccccc2)(c2ccccc2)C1=O (stereo not drawn),92.7 % of DMSO and 100 % of DMSO
COc1ccccc1OCC(O)COC(N)=O (stereo not drawn),105 % of DMSO and 98.1 % of DMSO
N#Cc1cc2[nH]c(=O)c(=O)[nH]c2cc1[N+](=O)[O-],89.2 % of DMSO

# Block 3
# Target: Mitogen-activated protein kinase 12 (MAPK12, Homo sapiens, UniProt P53778)
# Effect on: enzyme activity
# Action: inhibitor
# Concentration: 0.5 µM
# Reference: control
# Construct (P53778 1-367): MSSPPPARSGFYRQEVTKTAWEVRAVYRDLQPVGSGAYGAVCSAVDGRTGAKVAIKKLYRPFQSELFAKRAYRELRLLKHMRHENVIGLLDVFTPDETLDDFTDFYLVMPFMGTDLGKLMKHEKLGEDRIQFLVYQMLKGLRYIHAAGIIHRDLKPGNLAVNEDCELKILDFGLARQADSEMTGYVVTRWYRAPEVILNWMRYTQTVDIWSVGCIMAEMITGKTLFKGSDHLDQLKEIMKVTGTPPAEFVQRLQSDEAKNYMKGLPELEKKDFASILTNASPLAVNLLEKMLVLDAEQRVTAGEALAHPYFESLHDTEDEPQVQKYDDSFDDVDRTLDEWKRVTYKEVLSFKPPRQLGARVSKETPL
Structure (SMILES),remaining activity [%]
CCN(CC)CCNC(=O)c1c(C)[nH]c(/C=C2\C(=O)Nc3ccc(Cl)cc32)c1C,96.6
Cc1cc2ncc(-c3ccccc3)nc2cc1C,87.3
Cn1nc2c3c(cccc31)C(=O)c1ccccc1-2,93.8
COc1cc2ncnc(Nc3cccc(Cl)c3)c2cc1OC,98.5
O=C(Nc1cccc(Nc2nccc(Nc3cccc(C(F)(F)F)c3)n2)c1)C1CC1,99.7
N#Cc1c(NC(=O)c2cccc3ccccc23)sc2c1CCCC2,95.6
N#C/C(=C\c1ccc(O)c(O)c1)C(=O)NCc1ccccc1,94.2
O=C1C(Cl)=C(N2C(=O)CCC2=O)C(=O)c2ccccc21,100
CN(C)C[C@H]1CCn2c(c(C3=C(c4cn(C)c5ccccc45)C(=O)NC3=O)c3ccccc32)C1,102
O=C1c2ccccc2-c2n[nH]c3cccc1c23,93.5
c1ccc(-c2[nH]ncc2-c2ccnc3ccccc23)nc1,106
CCN(CC)C(=O)c1ccc(Nc2nc(OCC3CCCCC3)c3[nH]cnc3n2)cc1,99.4
CCOc1nc(NC(=O)Cc2cc(OC)ccc2OC)cc(N)c1C#N,94.7
CCN(CC)CCNC(=O)c1c(C)[nH]c(/C=C2\C(=O)Nc3ccc(F)cc32)c1C,95.8
c1ccc(-c2cnc(Nc3ccc(OCCN4CCCC4)cc3)s2)cc1,93.6
COc1cc2c(cc1OC)-c1[nH]nc(Nc3cccc(F)c3)c1C2,101
Cc1cn(-c2cc(NC(=O)c3ccc(C)c(Nc4nccc(-c5cccnc5)n4)c3)cc(C(F)(F)F)c2)cn1,96.9
O=c1cc(-c2cccc3c2Sc2ccccc2S3)oc(N2CCOCC2)c1,114
CN([C@@H](Cc1ccc(OS(=O)(=O)c2cccc3cnccc23)cc1)C(=O)N1CCN(c2ccccc2)CC1)S(=O)(=O)c1cccc2cnccc12,92.2
Ic1cccc(CSc2nnc(-c3ccncc3)o2)c1,93
COc1cc2ncnc(Nc3ccc(O)c(Br)c3)c2cc1OC,92.8
Cc1nc2cc3nc(-c4cccs4)cnc3cc2n1C,103

# Block 4
# Species: mouse
# Sample: microsomes or S9
# Concentration: 2 µM
# Time: 0.5 h
SMILES,remaining compound [%]
COc1ccc(N(C)S(=O)(=O)c2cc3c(cc2Cl)Oc2ccccc2NC3=O)cc1,64
CS(=O)(=O)N1CCC(Nc2nc(Cl)ncc2F)C1 (stereo not drawn),81.7
O=C(Cn1nc2c(cc1=O)CCCCC2)Nc1n[nH]c(C2CCCO2)n1 (stereo not drawn),78.2
CC(C)CS(=O)(=O)CC(=O)n1cccc/c1=N\C(C)C,59.8
CNC(=O)N1CCc2cc(S(=O)(=O)Nc3ccc(Cl)cc3)ccc21,< 1
Brc1ccc2nc(-c3cccs3)cn2c1,45.7
Cn1nccc1NC(=O)c1cnc2c(F)cc(F)cc2c1O,58.1
CCOC(=O)N1CCN(Cc2nc(N)nc(Nc3ccc(F)cc3)n2)CC1,> 100

# A few entries again (block 3):
Structure (SMILES),remaining activity [%]
c1ccc(-c2[nH]ncc2-c2ccnc3ccccc23)nc1,106
CCN(CC)C(=O)c1ccc(Nc2nc(OCC3CCCCC3)c3[nH]cnc3n2)cc1,99.4
CCOc1nc(NC(=O)Cc2cc(OC)ccc2OC)cc(N)c1C#N,94.7
CCN(CC)CCNC(=O)c1c(C)[nH]c(/C=C2\C(=O)Nc3ccc(F)cc32)c1C,95.8
c1ccc(-c2cnc(Nc3ccc(OCCN4CCCC4)cc3)s2)cc1,93.6
COc1cc2c(cc1OC)-c1[nH]nc(Nc3cccc(F)c3)c1C2,101
Cc1cn(-c2cc(NC(=O)c3ccc(C)c(Nc4nccc(-c5cccnc5)n4)c3)cc(C(F)(F)F)c2)cn1,96.9
